Assay results of several laboratories.
Each line is one published result; not all experiments were run side by side. Numbers after ± are the reported error. Values after ≈ are worked out from the molar mass of the structure shown.
Genome polyprotein NS2B-NS3 protease: Genome polyprotein, NS2B-NS3 protease (dengue virus type 2, UniProt P29990)

With `COc1ccc(NC(=O)c2cc(-c3ccccc3)n(-c3ccccc3)n2)cc1` the EC50 was 41 µM (Genome polyprotein NS2B-NS3 protease; reporter gene; HeLa).
With `CC(C)(C)[C@H](NC(=O)C(F)F)C(=O)N1C[C@H]2[C@@H]([C@H]1C(=O)N[C@H](C#N)C[C@@H]1CCCNC1=O)C2(C)C` the intrinsic clearance was less than 0.534 L/h/kg (human hepatocytes; scaled to liver).
With `Cc1c(Cc2cc(Cl)cc(O[C@H](C)C(=O)O)c2)c2ccc(C(=O)N[C@@H](C)c3ccc(C(C)(C)C)cc3)cc2n1CC(C)C` the half-life was 0.422 h (metabolic stability; mouse, liver microsomes).
With `CCCCN1C(=O)c2cccc3c(NCCCCCCN4CCOCC4)ccc(c23)C1=O` the absorption maximum was 441 nm (DMF).
`CCCCCCCCCCCCCCCC(=O)N[C@@H](CCC(=O)NCCCC[C@H](NC(=O)[C@H](CCC(N)=O)NC(=O)[C@H](Cc1c[nH]cn1)NC(=O)[C@@H](NC(=O)[C@H](CCCCN)NC(=O)[C@H](CC(=O)O)NC(=O)[C@H](CCSC)NC(=O)[C@H](C)NC(=O)[C@@H](NC(=O)[C@H](CO)NC(=O)[C@H](Cc1ccc(O)cc1)NC(=O)[C@H](CC(=O)O)NC(=O)[C@H](CO)NC(=O)[C@@H](NC(=O)[C@H](Cc1ccccc1)NC(=O)[C@@H](NC(=O)CNC(=O)[C@H](CCC(=O)O)NC(=O)[C@H](C)NC(=O)[C@H](Cc1ccc(O)cc1)NCC(F)(F)F)[C@@H](C)O)[C@@H](C)CC)[C@@H](C)CC)[C@@H](C)CC)C(=O)N[C@@H](CC(=O)O)C(=O)N[C@@H](Cc1ccccc1)C(=O)N[C@H](C(=O)N[C@@H](CC(N)=O)C(=O)N[C@@H](Cc1c[nH]c2ccccc12)C(=O)N[C@@H](CC(C)C)C(=O)N[C@@H](CC(C)C)C(=O)N[C@@H](C)C(=O)N[C@@H](CCC(N)=O)C(=O)N[C@@H](CCCCN)C(=O)NCC(=O)N[C@@H](CCCCN)C(=O)N[C@@H](CCCCN)C(=O)N[C@@H](CC(N)=O)C(=O)N[C@@H](CC(=O)O)C(=O)N[C@@H](Cc1c[nH]c2ccccc12)C(=O)N[C@@H](CCCCN)C(=O)N[C@@H](Cc1c[nH]cn1)C(=O)N[C@@H](CC(N)=O)C(=O)N[C@H](C(=O)N[C@H](C(=O)N[C@@H](CCC(N)=O)C(=O)O)[C@@H](C)O)[C@@H](C)CC)C(C)C)C(=O)O` gave a serum concentration of 0.025 µM (GIPR luciferase bioassay; C57BL/6 mice, male, serum; subcutaneous, 1.25 µg, 1 h, below detection limit).
`COc1ccc(N2CCOCC2)c2sc(NC(=O)c3ccnc(CN4CCCC4)c3)nc12` has an intrinsic solubility of 0.008 mg/mL (Henderson-Hasselbalch equation).
The tracer uptake of `CN([O-])C(=O)CN1CCN(CC(=O)N(C)[O-])CCN(Cc2ccccn2)CC1.[89Zr+4]` is reported as 0.26 %ID/g (mouse, muscle; intravenous, 24 h).
The hemolysis of `CCCCCCCCCCCCCCCOC(=O)/C=C/c1cccc(O)c1` is reported as 0.54% (red blood cells; concentration not given; reference: Triton X-100).
`C=CC(=O)Nc1cccc(Cn2ncc3cnc(Nc4cnn(CCOC)c4)nc32)c1`: “percent of control” 100% (CAMK2A human; binding, KINOMEscan; 100 nM; lower = stronger binding).
For `COC1CN([C@H]2CC[C@H]([C@@]3(C)Oc4c(Cl)cc(C(=O)NCc5c(SC)cc(C)[nH]c5=O)c(C)c4O3)CC2)C1`, “log2 fold change” read 1.28 (RNA-seq, item: PXDC1; human, whole blood; dose not given, 24 h; reference: pretreatment baseline).
`O=C(Nc1cnccc1-c1ccc([18F])nc1)c1ccnc(NC(=O)C2CC2)c1` has a median SUV of 0.268 (PET imaging; FVB/NJ mice, both sexes, brain; intravenous, 10 min post-injection, P-gp inhibited, together with: tariquidar 15 mg/kg iv, 2 h before).
`C=C(NC(=O)c1csc(-c2nc3c(cc2O)-c2nc(cs2)C(=O)NC(C(C)O)C(=O)NC(=C(C)OC)c2nc(cs2)C(=O)NC2c4nc(cs4)C(=O)NC(COC(=O)c4c5c6c(cccc6n4O)COC(=O)C(OC4CC(C)(O)C(N(C)C)C(C)O4)C2OC5)c2nc-3cs2)n1)C(N)=O` (stereo not drawn) gave a half-life of 1.12 h (ICR mice, Streptococcus pneumoniae ATCC 49169 infected, immunocompromised, blood; intravenous, 2 mg/kg/day once daily).
For `CN1CCC[C@]1(C)/C=C/S(=O)(=O)NC(=O)Nc1c2c(cc3c1CCC3)CC=C2`, “AUC(0-tau) accumulation ratio” read 2.2 (human, plasma; oral, 12.5 mg twice daily of parent drug, metabolite of dosed drug; reference: day 14 over day 1).
The recovery of `C=CC(=O)Nc1cc(Nc2nccc(-c3cn(C)c4ccccc34)n2)c(OC)cc1N(C)CCNC` is reported as 46.7% (human plasma; 72 h, storage stability, medium QC sample).
`CN(O)C(=O)CCC(=O)NCCCN(CCCCN(CCCNC(=O)CCC(=O)N(C)O)C(=O)CCC(=O)N(C)O)C(=O)CCC(=O)N(C)O.[89Zr]` gave a tracer uptake of 0.29 %ID/g (mouse, heart; 1 h).
`CN1CCC[C@]1(C)/C=C/S(=O)(=O)NC(=O)Nc1c2c(cc3c1CCC3O)CCC2` (stereo partly drawn) has an AUC(0-tau) of 808 µg·h/mL (human, plasma; oral, 100 mg twice daily of parent drug, day 14, metabolite of dosed drug).
`CC[C@H](C)[C@H](N)C(=O)N[C@@H](CC(C)C)C(=O)N1CCC[C@H]1C(=O)N[C@@H](CO)C(=O)N[C@@H](CC(=O)O)C(=O)N[C@H](C(=O)N[C@@H](CCSC)C(=O)N[C@@H](CC(=O)O)C(=O)N[C@@H](Cc1ccccc1)C(=O)N[C@H](C(=O)N[C@@H](CC(C)C)C(=O)N[C@@H](CCCCN)C(=O)N[C@@H](CC(N)=O)C(=O)N[C@H](C(=O)N1CCC[C@H]1C(N)=O)[C@@H](C)O)C(C)C)[C@@H](C)CC` has a degradation of roughly 25% (HPLC; 50% human serum; 1 mg/mL, 24 h, 37 °C).
For `Cc1cc(-c2ccc(C(=O)[C@@H]3CCCC[C@H]3C(=O)Nc3cnn4c3C(=O)NCC4)cc2)[nH]n1`, “cumulative recovery of radioactivity” read 61.1% (human, faeces; oral, 200 mg, 0-96 h; reference: dose).
`CC(C)[C@H](NC(=O)[C@H](Cc1c[nH]c2ccccc12)NC(=O)[C@H](CCCNC(=N)N)NC(=O)[C@H](CCCNC(=N)N)NC(=O)[C@@H](NC(=O)[C@@H](NC(=O)[C@H](CCCNC(=N)N)NC(=O)[C@@H](NC(=O)[C@@H](NC(=O)[C@H](CCCNC(=N)N)NC(=O)[C@H](CCCNC(=N)N)NC(=O)[C@@H](NC(=O)[C@H](Cc1c[nH]c2ccccc12)NC(=O)[C@H](CCCNC(=N)N)NC(=O)[C@H](CCCNC(=N)N)NC(=O)[C@@H](NC(=O)[C@H](CCCNC(=N)N)NC(=O)[C@H](CCCNC(=N)N)NC(=O)[C@@H](NC(=O)[C@H](Cc1c[nH]c2ccccc12)NC(=O)[C@H](CCCNC(=N)N)NC(=O)[C@@H](N)CCCNC(=N)N)C(C)C)C(C)C)C(C)C)C(C)C)C(C)C)C(C)C)C(C)C)C(=O)N[C@@H](CCCNC(=N)N)C(=O)N[C@@H](CCCNC(=N)N)C(=O)O` gave a urinary sodium of less than 100 mEq/L (CD-1 mice; intravenous, 15 mg/kg, 6-24 h).
With `O=c1c2ccccc2[se]n1CCCCCCn1[se]c2ccccc2c1=O` the solubility was 0.98 ± 0.06 mg/mL (≈ 2050 µM) (shake-flask, RP-HPLC; isopropyl alcohol; 24 h, 25 °C).
For `N#Cc1ccc(CNC(=O)c2cc(-c3ccccc3)n(-c3ccccc3)n2)cc1`, the EC50 was 20 µM (Genome polyprotein NS2B-NS3 protease; reporter gene; HeLa).
`CC(C)(O)c1ncc([S@](N)(=O)=NC(=O)Nc2c3c(cc4c2CCC4)CCC3)s1`: “subjects with gastrointestinal adverse events” 50% (healthy human subjects; oral, 100 mg, all arms total).
With `CCCCN1C(=O)c2cccc3c(NCCCCCCCCN4CCOCC4)ccc(c23)C1=O` the absorption maximum was 429 nm (ethyl acetate).
With `Cc1[nH]nc2c1N=C(c1ccccc1Cl)c1cnc(N3CCOCC3)cc1N2` the half-life was 6.87 h (male beagle dog, plasma; oral, 2 mg/kg).
For `O=C(Nc1cnccc1-c1ccc([18F])cc1)c1ccnc(NC(=O)C2CC2)c1`, the SUV was 2.22 (FVB/NJ mice (both sexes), small intestine; intravenous, dose not given, 120 min, together with: tariquidar 15 mg/kg i.v. pre-dose).
With `COc1cccc(OC)c1-c1cc(C(=O)NC2(C(=O)O)C3CC4CC(C3)CC2C4)nn1-c1ccc(C(=O)N(C)CCCN(C)C(=O)[C@H](CCCCNC(=O)[C@H](CC(C)C)NC(=O)C2OC2C(=O)O)NC(=O)CN2CCN(CC(=O)[O-])CCN(CC(=O)[O-])CCN(CC(=O)[O-])CC2)cc1C(C)C.[177Lu+3]` (mixture of isomers) the tumour-to-liver ratio was 3.25 (mouse, HT-29 xenograft; 24 h post injection, biodistribution; reference: tumour over liver uptake).
With `COc1ccnc(C(=O)N[C@H]2COC(=O)[C@H](Cc3ccccc3)[C@@H](OC(=O)C(C)C)[C@H](C)OC2=O)c1O` the residue level was no more than 0.08 mg/kg (wheat, straw; foliar, dose not given).
With `CCCC[C@H](NC(=O)CCCCCCCNC(=O)CN1CCN(CC(=O)O)CCN(CC(=O)O)CC1)C(=O)N[C@H]1CC(=O)NCCCC[C@@H](C(N)=O)NC(=O)[C@H](Cc2c[nH]c3ccccc23)NC(=O)[C@H](CCCNC(=N)N)NC(=O)[C@@H](Cc2ccccc2)NC(=O)[C@H](Cc2c[nH]cn2)NC1=O` [technetium-99m labelled] the tissue uptake was 1.16 ± 0.88 %ID/g (C57 mouse, spleen; intravenous, 0.037 MBq, 0.5 h).
`CN[C@H](CC(C)C)C(=O)N[C@H]1C(=O)N[C@@H](CC(N)=O)C(=O)N[C@H]2CN[C@H]3C(=O)N[C@H](C(=O)N[C@H](C(=O)NCCCNC(=N)N)c4cc(O)cc(O)c4-c4cc3ccc4O)[C@H](O)c3ccc(c(Cl)c3)Oc3cc2cc(c3O[C@@H]2O[C@H](CO)[C@@H](O)[C@H](O)[C@H]2O[C@H]2C[C@](C)(NCc3ccc(-c4ccc(Cl)cc4)cc3)[C@H](O)[C@H](C)O2)Oc2ccc(cc2Cl)[C@H]1O` has a clearance of 0.0258 L/h/kg (mouse; intravenous, 50 mg/kg).
`Cc1ncsc1-c1ccc(C(C)NC(=O)C2CC(O)CN2C(=O)C(NC(=O)CCCCCCCCCCN2CCCC(Nc3ncc(Cl)c(Nc4ccccc4S(=O)(=O)C(C)C)n3)C2)C(C)(C)C)cc1` (stereo not drawn) — result for “log2 fold change”: -1.72 (22Rv1; RNA-seq, item: RASA3 mRNA; concentration not given; reference: DMSO).
`CCCCN1C(=O)c2cccc3c(NCCCCN4CCOCC4)ccc(c23)C1=O` has an absorption maximum of 447 nm (ethylene glycol).
`CCCCCCCCCCCCCCCCCC(=O)[O][Pt-2]1([OH])([Cl])([NH+]=C(CC)N(C)CCNc2c3ccccc3[nH+]c3ccccc23)[NH2+]CCC[NH2+]1.O=[N+]([O-])[O-].O=[N+]([O-])[O-]` has a logD of 0.57 ± 0.02 (shake-flask; 1-octanol/water; pH 7).
The AUC extrapolated of `CN(C(=O)C(C)(C)c1cc(C(F)(F)F)cc(C(F)(F)F)c1)c1cnc(N2C[C@H]3COCCN3C[C@H]2CO)cc1-c1ccc(F)cc1CO` is reported as 5.29% (human, plasma; oral, 120 mg, geometric mean).
The remaining binding of `Nc1ncc(-c2cc(-c3cnn(CC(F)(F)F)c3)ncc2F)nc1C(=O)NC1CNCC(F)C1` (stereo not drawn) is reported as 67% (CAMK1B; KINOMEscan competition binding; 1 µM; reference: DMSO control).
`O=C1C2CC3CC1CC(C(=O)N1CCN(c4ccc([N+](=O)[O-])c5ncccc45)CC1)(C3)C2`: “mean revertant colonies” 7 colonies/well (Salmonella typhimurium; Ames test; TA98; 0.78 µg/well, with S9).
`CNC(=O)C1CCCN(C(=O)C2CC3CCC2N3C(=O)[C@@H]2C[C@@H](O)CN2C(=O)NCc2cccc(Cl)c2F)C1` (mixture of isomers) has a 6β-hydroxytestosterone formed of 187 ng/mL (human CYP3A4; time-dependent inhibition; 0.206 µM, preincubation with NADPH, together with: testosterone).

For quick reference, copied from above:
With `COc1cccc(OC)c1-c1cc(C(=O)NC2(C(=O)O)C3CC4CC(C3)CC2C4)nn1-c1ccc(C(=O)N(C)CCCN(C)C(=O)[C@H](CCCCNC(=O)[C@H](CC(C)C)NC(=O)C2OC2C(=O)O)NC(=O)CN2CCN(CC(=O)[O-])CCN(CC(=O)[O-])CCN(CC(=O)[O-])CC2)cc1C(C)C.[177Lu+3]` (mixture of isomers) the tumour-to-liver ratio was 3.25 (mouse, HT-29 xenograft; 24 h post injection, biodistribution; reference: tumour over liver uptake).
With `O=c1c2ccccc2[se]n1CCCCCCn1[se]c2ccccc2c1=O` the solubility was 0.98 ± 0.06 mg/mL (≈ 2050 µM) (shake-flask, RP-HPLC; isopropyl alcohol; 24 h, 25 °C).
With `COc1ccnc(C(=O)N[C@H]2COC(=O)[C@H](Cc3ccccc3)[C@@H](OC(=O)C(C)C)[C@H](C)OC2=O)c1O` the residue level was no more than 0.08 mg/kg (wheat, straw; foliar, dose not given).
For `CN1CCC[C@]1(C)/C=C/S(=O)(=O)NC(=O)Nc1c2c(cc3c1CCC3)CC=C2`, “AUC(0-tau) accumulation ratio” read 2.2 (human, plasma; oral, 12.5 mg twice daily of parent drug, metabolite of dosed drug; reference: day 14 over day 1).
